Measured values from different studies.
Lines come from different studies, so protocols differ.
Target: SRSF protein kinase 1 (SRPK1, Homo sapiens, UniProt Q96SB4)
UniProt Q96SB4, sequence (whole entry, looked up): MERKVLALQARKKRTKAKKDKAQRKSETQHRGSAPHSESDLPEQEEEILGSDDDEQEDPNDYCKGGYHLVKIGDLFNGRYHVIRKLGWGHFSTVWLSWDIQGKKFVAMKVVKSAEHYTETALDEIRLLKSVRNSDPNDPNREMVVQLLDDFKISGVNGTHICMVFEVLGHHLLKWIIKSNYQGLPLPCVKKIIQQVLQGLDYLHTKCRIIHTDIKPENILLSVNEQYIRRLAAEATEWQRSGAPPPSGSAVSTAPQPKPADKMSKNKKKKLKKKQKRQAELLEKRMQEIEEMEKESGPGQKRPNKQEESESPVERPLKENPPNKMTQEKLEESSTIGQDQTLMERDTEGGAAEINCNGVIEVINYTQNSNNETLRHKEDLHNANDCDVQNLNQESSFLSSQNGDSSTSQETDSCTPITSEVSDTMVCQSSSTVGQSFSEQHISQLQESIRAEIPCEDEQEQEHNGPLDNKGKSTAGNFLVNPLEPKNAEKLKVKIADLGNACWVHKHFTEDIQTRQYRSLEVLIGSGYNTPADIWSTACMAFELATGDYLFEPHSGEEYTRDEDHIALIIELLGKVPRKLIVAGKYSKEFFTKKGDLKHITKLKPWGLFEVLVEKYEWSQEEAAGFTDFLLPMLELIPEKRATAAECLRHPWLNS

`Cc1ccc(-c2c(/C=C(\C#N)C(=O)NC(C)C)n(CCCO)c3ncnc(N)c23)cc1` has a remaining binding of 100% (cell-free assay, competition with immobilised ligand; 1 µM).
`Cc1cccc(O[C@H]2CCC[C@@H](C(C)CNCc3ccncc3)C2)c1` (relative stereo) gave an inhibition of 8% (enzyme activity, inhibitor; 10 µM).
For `CNC(=O)C1CCN(c2cc(C)c(F)cc2NC(=O)c2ccc(-c3cc(O)ccc3C)c(C)c2)CC1`, the remaining binding was 100% (binding, competition with immobilised ligand; 1 µM).
`NC(=O)[C@@H](O)C[C@H]1CCc2sc3ncnc(O[C@H]4CC[C@H](N5CCOCC5)CC4)c3c21` has an inhibition of 4% (enzyme activity, inhibitor; 10 µM).
`COc1ccc(NC(=O)Nc2ccc3c(c2)C(=O)N(C(C)CO)CC(C)C(CN(C)Cc2ccc4c(c2)OCO4)O3)cc1` (stereo not shown) has a remaining activity of 100% (kinase activity, KinaseProfiler; 0.03 µM, species human; baseline: control).
For `O=C(O)CCC(=O)c1cccc(NS(=O)(=O)c2c[nH]c3ncccc23)c1`, the remaining activity was 105% (kinase activity, radiometric; 10 µM).
`Cc1cccc(-c2ccc3nc(NC(=O)C4CCCO4)nn3c2)c1` (stereo not shown) gave a remaining activity of 64% (enzyme activity, Dundee kinase panel; 10 µM).
`C=CC(=O)Nc1cc(-c2nn(C3CCN(CCNC(=O)[C@H](C)CCC45CC6CC(CC(C6)C4)C5)CC3)c3ncnc(N)c23)ccc1Oc1ccccc1` gave an inhibition of 12% (inhibitor, KiNativ profiling; biochemical; 2 µM).
For `CCn1cc(C(=O)O)c(=O)c2c(N)c(F)c(NC3CCCCC3)cc21`, the inhibition was 3.9% (kinase activity; 0.1 µM, with: ATP at Km).
With `c1ccc2c(Nc3cc(C4CCC4)[nH]n3)nc(Nc3ccc4nc[nH]c4c3)nc2c1` the remaining activity was 17% (enzyme activity, inhibitor; 0.25 µM).
`O=C(Nc1ccccc1)Nc1ccccc1O` gave an inhibition of 13.4% (enzyme activity, inhibitor, FRET; 10 µM).
`CNC(=O)C[C@H](Cc1ccc(C#N)cc1)NC(=O)c1cc(-c2ccc(CN[C@H](C)c3ccc(C)cc3)o2)ccc1Cl` — result for “activity vs control”: 105% (enzyme activity, inhibitor; 1 µM).
For `C=CC(=O)Nc1cccc(-c2cnc3[nH]cc(C(=O)NC(C)(C)C)c3n2)c1`, the inhibition was -6% (enzyme activity, inhibitor; 0.1 µM).
For `COc1c(OCCCN2CCOCC2)ccc2c1N=C(NC(=O)c1cnc(N)nc1)N1CCN=C21`, the remaining activity was 95% (kinase activity, inhibitor; 1 µM; baseline: untreated control).
For `N#Cc1ccc(NC(=O)Nc2ccccc2)cc1`, the inhibition was 23.1% (enzyme activity, inhibitor, FRET; 10 µM).
`Cc1cccc(-c2ccc3nc(NC(=O)C4CCOCC4)nn3c2)c1` gave a remaining activity of 53% (enzyme activity, Dundee kinase panel; 10 µM).

Repeated from above:
`Cc1cccc(O[C@H]2CCC[C@@H](C(C)CNCc3ccncc3)C2)c1` (relative stereo) gave an inhibition of 8% (enzyme activity, inhibitor; 10 µM).
`C=CC(=O)Nc1cc(-c2nn(C3CCN(CCNC(=O)[C@H](C)CCC45CC6CC(CC(C6)C4)C5)CC3)c3ncnc(N)c23)ccc1Oc1ccccc1` gave an inhibition of 12% (inhibitor, KiNativ profiling; biochemical; 2 µM).
For `N#Cc1ccc(NC(=O)Nc2ccccc2)cc1`, the inhibition was 23.1% (enzyme activity, inhibitor, FRET; 10 µM).
